Results from different studies.
Parts stem from different laboratories: compare values within a part only.

Set 1 — method: RNA Bind-n-Seq; molecule type: RNA; medium: in vitro; concentration: 200 nM; setting: whole 134-nt RNA, ends assumed; added: 150 mM KCl; baseline: input library; reading: higher = stronger binding; measurement: log2 enrichment
Target: Fragile X messenger ribonucleoprotein 1, C-terminal low-complexity region (Fmr1, Mus musculus, UniProt P35922)
Shared flanks, not repeated: GGGAGUUCUACAGUCCGACGAUC … UGGAAUUCUCGGGUGUCAAGG
CUCAAGUCCUGUGCUACACAUCGUAUGUACCGAAUCGGGCCGGGGCCGGCCGGGAAAGUAUUAUGUUACGCCGUUCGGAUCUGCACUUCC: -0.274
UGUGUUGUGCUCAUUACCAGUGCAGCGACUGCCGUCCCAGGGUGACUCUGAGUUGUCCUUUAUCGUGAGCUAGCAAUGGCUAGCGAAGAC: -1.66
GUCCUGUGCUACACAUCGUAUGUACCGAAUCGGGGUUUUUGGUUUUUGGGUUUUUGGGGAAAGUAUUAUGUUACGCCGUUCGGAUCUGCA: 0.0422
GAUGAGACAGAUGCUUCAUCAGCAGUGAAAGUGAAAAGAGCAGUCCAGAAAACAUCCGAUUUAAUAGUGUUGGGUCUCCCAUGGAAAACA: -0.253
UGGCGCUGGUGGCAUGCGGGGAGGAAGAGGUGGCCUCAUGGAUCGUGGUGGUCCCGGUGGAAUGUUCAGAGGUGGCCGUGGUGGAGACAG: 0.434

Set 2 — method: protein-binding microarray; molecule type: double-stranded DNA, one strand shown; medium: in vitro; concentration: 0.8 µM; setting: whole 60-bp probe, no competitor; reading: higher = stronger binding; measurement: fluorescence intensity; shared flanks, not repeated: … GTCTTGATTCGCTTGACGCTGCTG
Target: Centromere-binding protein 1, full length, N-terminal tag (CBF1, Saccharomyces cerevisiae, UniProt P17106, residues 1-351)
Sequence of UniProt P17106 (whole entry, looked up): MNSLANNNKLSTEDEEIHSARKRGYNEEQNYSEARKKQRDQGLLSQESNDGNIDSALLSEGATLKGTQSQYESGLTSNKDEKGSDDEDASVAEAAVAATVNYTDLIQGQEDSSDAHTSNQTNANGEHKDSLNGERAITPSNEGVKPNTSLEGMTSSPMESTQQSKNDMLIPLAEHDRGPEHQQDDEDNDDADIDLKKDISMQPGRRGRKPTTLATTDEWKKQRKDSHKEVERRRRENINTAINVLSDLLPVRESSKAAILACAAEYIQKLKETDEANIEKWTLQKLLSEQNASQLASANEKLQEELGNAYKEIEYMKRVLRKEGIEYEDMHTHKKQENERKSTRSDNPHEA
CTAACTGTACATTCACACGGGAAACGAGAGAAATTC: 583 a.u.
CTAAAGTAATATCATAACGTGTGATGACTACTGTTC: 609 a.u.
GAAAAAAATTTCATCCACGCAACTTTTTTTTGGTAG: 560 a.u.
CTAAAGCGGGTAATAAACGTGTCTTTCGGTATTTTC: 545 a.u.
TGTACGAAGCTATTCCATCTGATTATAGTAGTTAGG: 533 a.u.

Set 3 — method: protein binding microarray; molecule type: double-stranded DNA, one strand shown; medium: in vitro; concentration: not given; baseline: not given; reading: higher = stronger binding; measurement: E-score
Target: Histone acetyltransferase KAT6A, both winged helices, GST fusion (KAT6A, Homo sapiens, UniProt Q92794, residues 1-181)
Setting: 8-mer, flanks averaged, mean of 2 arrays, mostly near background
Construct (chain): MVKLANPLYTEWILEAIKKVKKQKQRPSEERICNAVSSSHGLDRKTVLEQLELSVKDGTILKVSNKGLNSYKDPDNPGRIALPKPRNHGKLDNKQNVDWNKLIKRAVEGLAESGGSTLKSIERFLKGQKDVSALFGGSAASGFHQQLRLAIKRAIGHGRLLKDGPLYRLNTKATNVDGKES
CATGTAAA: 0.0618
AAGCATAC: 0.00819
GTTCAGAA: -0.059
ACCCGCCT: 0.185
ACGGACCG: 0.234

Other studies, line by line
PhoQ, residues 284 288 289 292 302 303 GTAMQF  fold induction (PhoP, residues 12 14 15 18 19 LHHVQ (Escherichia coli, UniProt P23836); Sort-seq, item: YFP reporter; E. coli; PhoQ-PhoP variant library, added: 10 µM Mg2+; baseline: high Mg2+ state, higher = stronger signaling): 3.44

A few entries again (set 3):
AAGCATAC: 0.00819
